Assay results pooled from the literature.
Protocols differ between the studies behind these lines. Several values in a cell are separate wells, animals, samples, runs or records.
Target: SRSF protein kinase 2 (SRPK2, Homo sapiens, UniProt P78362)

`O=C=[N][Ru-4]123([n]4c5ccc(O)cc5c5c6c(c7cc(F)c[n+]1c7c54)C(=O)NC6=O)[S+]1CC[S+]2CC[S+]3CC1` (stereo not shown) gave a remaining activity of 30% (enzyme activity; 100 nM, human enzyme, added: 10 µM ATP; relative to: untreated).
`CC(C)=CC1OC(C)(C)C2C=C3C(=O)C(Cl)=CC(O)C3C3C(O)C4OC4C(=O)C132` (stereo not shown) has a remaining binding of 100% (cell-free assay, competition with immobilised ligand; 10 µM).
With `NC(=O)[C@@H](O)C[C@H]1CCc2sc3ncnc(O[C@H]4CC[C@H](N5CCOCC5)CC4)c3c21` the inhibition was 6% (enzyme activity, inhibitor; 10 µM).
For `O=C(Nc1ccccc1)Nc1ccccc1O`, the inhibition was 4.3% (enzyme activity, inhibitor, FRET; 10 µM).
With `C=CC(=O)N1CCc2ccc(-n3c(=O)ccc4cnc5ccc(-c6cnn(C)c6)cc5c43)cc21` the remaining binding was 100% (KINOMEscan; 1 µM; relative to: DMSO control).
For `Nc1ncc(-c2cc(-c3cnn(CC(F)(F)F)c3)ncc2F)nc1C(=O)NC1CNCC(F)C1` (stereo not shown), the remaining activity was 94.9% (enzyme activity; 1 µM; relative to: DMSO control).
`C=CC(=O)Nc1cccc(-c2cnc3[nH]cc(C(=O)NC(C)(C)C)c3n2)c1` gave an inhibition of 3% and 1% (kinase activity; 0.1 µM).
`COc1cc(Nc2nccc(-c3cnn4nc(OC)ccc34)n2)cc(C(F)(F)F)c1` gave a remaining binding of 55% (binding, competition with immobilised ligand; 1 µM).
`C=CC(=O)N1Cc2nc(-c3cc(-c4cc(Cl)cnc4Cl)c(F)cc3F)n(-c3ccncn3)c2C1` has an inhibition of 1.4% (cell-free assay, inhibitor; 1 µM).
With `CCN1CCN(Cc2ccc(C(=O)Nc3ccc(C)c(NCc4cnc5[nH]ccc5c4OC)c3)cc2C(F)(F)F)CC1` the remaining binding was 100% (binding, competition with immobilised ligand; 1 µM).
For `CNC(=O)C1CCN(c2cc(C)c(F)cc2NC(=O)c2ccc(-c3cc(O)ccc3C)c(C)c2)CC1`, the remaining binding was 94% (binding, competition with immobilised ligand; 1 µM).
For `Cc1cnc2nc1Nc1cccc(c1)COC/C=C/COCc1cc(ccc1OCCN1CCOCC1)N2`, the remaining binding was 86% (binding, competition with immobilised ligand; 0.1 µM).
With `C[C@H]1CN(C(=O)c2cn(-c3ccnc(N)n3)c3cc(C#CC4(O)CCCCC4)ccc23)CCN1` the inhibition was 5% (enzyme activity, inhibitor, FRET; 1 µM).
`N#Cc1ccc(NC(=O)Nc2ccccc2)cc1` has an inhibition of 7.8% (enzyme activity, inhibitor, FRET; 10 µM).
The inhibition of `CCn1cc(C(=O)O)c(=O)c2c(N)c(F)c(NC3CCCCC3)cc21` is reported as -0.3% (kinase activity; 0.1 µM, added: ATP at Km).
`O=C(Nc1ccccc1)Nc1cccc(O)c1` gave an inhibition of 9.1% (enzyme activity, inhibitor, FRET; 10 µM).
`Cc1cccc(O[C@H]2CCC[C@@H](C(C)CNCc3ccncc3)C2)c1` (relative stereo) gave an inhibition of -3% (enzyme activity, inhibitor; 1 µM).
`CN(C(=O)N(C)c1ccc(C#N)cc1)c1ccccc1` — result for inhibition: “no inhibition” (kinase activity, inhibitor, Z'-LYTE; 10 µM, added: ATP at apparent Km).
With `COCC12C(=O)NC3C4(C(OC)CC1O)C1CC5(O)C(OC)C(O)C(OC(C)=O)(C1C5OC(=O)c1ccccc1)C3(O)C(OC)C24` (stereo not shown) the remaining activity was 108% and 100% (kinase activity, inhibitor, ProQinase kinase profiling; 25 µM; relative to: control).
